Measured values pooled from the literature.
Each numbered part is a random draw from the data of one study; scales do not carry over between parts. Changes are numbered by the printed parent chain.

Sample 1
Target: CCND1, cyclin fold, Cln2 fusion (human)
Technique: yeast growth competition, sequencing
Sample: yeast
Notes: weak parent motif
Reference: not given
Reading: higher = stronger binding
Parent: BRCA2 docking peptide (human); PSIKRNLLNEFDR
Change	normalised enrichment score
PSIKRNLLNETDR [F11T]	0.227
PSIKRNILNEFDR [L7I]	0.606
PSIKRNLLFEFDR [N9F]	-0.151
PPIKRNLLNEFDR [S2P]	0.276
PSIKRNLLNEFDT [R13T]	0.786
PSIYRNLLNEFDR [K4Y]	0.339
PSIKRNLLNEFDQ [R13Q]	0.498
PSIKRNLLNVFDR [E10V]	0.0755
PSIKRNLLNSFDR [E10S]	0.317
PSIKYNLLNEFDR [R5Y]	-0.152
PSIKRNLLNMFDR [E10M]	0.427
NSIKRNLLNEFDR [P1N]	0.78
PSIKRRLLNEFDR [N6R]	-0.111
PSIKDNLLNEFDR [R5D]	1.34
PSIKRNLLNEFFR [D12F]	0.723
PSIKRNLLVEFDR [N9V]	0.359
PSIKRNLLNEDDR [F11D]	0.202
PSIKRNLLNEWDR [F11W]	-0.405
PSIKRNLLNTFDR [E10T]	-0.722

Sample 2
Target: ABI1, truncated, D143A, DHFR fusion (Arabidopsis thaliana)
Technique: DHFR PCA, deep sequencing
Sample: yeast
Notes: methotrexate growth selection, single substitutions
With: (+)-ABA 0 µM
Reference: wild-type fitted maximum
Reading: higher = stronger binding
Parent: PYL1, truncated, DHFR fusion (Arabidopsis thaliana); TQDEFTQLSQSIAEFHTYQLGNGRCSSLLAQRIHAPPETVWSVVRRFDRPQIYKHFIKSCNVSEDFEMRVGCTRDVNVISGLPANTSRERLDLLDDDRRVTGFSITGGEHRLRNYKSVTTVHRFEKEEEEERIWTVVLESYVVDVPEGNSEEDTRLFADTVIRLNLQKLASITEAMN; partner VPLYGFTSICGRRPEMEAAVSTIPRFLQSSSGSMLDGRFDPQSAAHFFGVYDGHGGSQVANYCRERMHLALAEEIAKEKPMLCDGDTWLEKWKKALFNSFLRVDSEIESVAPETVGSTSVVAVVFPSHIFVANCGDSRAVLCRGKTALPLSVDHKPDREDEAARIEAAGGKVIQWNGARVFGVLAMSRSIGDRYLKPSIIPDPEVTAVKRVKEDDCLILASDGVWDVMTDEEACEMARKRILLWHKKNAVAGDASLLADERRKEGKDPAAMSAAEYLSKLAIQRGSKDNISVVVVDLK
Change	relative binding score [%]
N85M	60.4
L29W	0.208
E125K	20.5
K126P	40
I12Y	-3.15
S63E	17.5
V118Y	2.82
V43D	2.98
D65P	48
V78A	9.52
D65W	-0.0577
S87H	50.2
D75M	22.5
F5W	34.4
F47N	-4.09
S27M	-0.938

Sample 3
Target: DDIT3, bZIP domain (human)
Technique: DHFR protein complementation
Sample: yeast
Notes: single substitutions, most at no-binding floor
Reference: wild-type JUN-FOS pair
Reading: higher = stronger binding
Parent: JUN, bZIP domain (human); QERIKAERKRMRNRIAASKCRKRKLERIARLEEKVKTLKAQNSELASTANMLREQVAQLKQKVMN; partner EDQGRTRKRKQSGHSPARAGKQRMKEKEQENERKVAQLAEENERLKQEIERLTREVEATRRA
Change	binding fitness [natural log]
T48V	0.0542
L38G	-1.18
L38S	-1.31
A46C	-0.117
N42P	-1.23
L31E	-0.82
E44C	-0.0931
K36E	0.0781
L52K	-1.13
L59P	-0.781
E54Q	-0.191
T48K	0.117
K39L	0.0324
A57M	0.000361
K34G	-0.843
T48L	0.00528
Q55A	0.0206
S43H	0.0572
A49F	-0.577
S43V	0.0275
E33H	-0.0445
A46Y	-0.163

Sample 4
Target: RNA binding protein fox-1 homolog 2, RRM domain, GST-SBP tag (RBFOX2, Homo sapiens, UniProt O43251-10, residues 100-194)
Technique: RNA Bind-n-Seq
Molecule type: RNA
Sample: in vitro
Concentration: 365 nM
Notes: natural RNA segment, single round, ends assumed
Reference: no-protein control
Reading: higher = stronger binding
Shared flanks, not repeated: GGGAGUUCUACAGUCCGACGAUC … UGGAAUUCUCGGGUGCCAA
Residues (chain): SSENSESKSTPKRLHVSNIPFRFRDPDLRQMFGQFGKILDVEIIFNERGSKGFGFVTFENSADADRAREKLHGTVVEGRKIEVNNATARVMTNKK
Oligonucleotide	RBNS enrichment (R)
CCUGAAGACCCACUGAGGAAUUCCGUAGGGUCUUGUUCCCACGACCGGAGUGCUGGCUCUCACAGUGAAUUUUGAUGCAUUUAAAAUAAGAUUCUGAUGCCAGACUGUUA	2.12
UUUAAAAAGGAGAUUAUUCUAAAACAUAAACUUAUUUGCAUAUAUUGGAGGAGCAUCCACUAUCAGUAUUUCUGUGCUUUAUAAACUAUAUUAGAGGGACUGGGUUUAAA	0.456
GGCAAGAGAAUCACUUGAACCCGGGAGGUGGAGGUGGCAGUGAGCCGAGAUUGCGCCAUUGCACUCCAGCCUGGGCAAAAAGAGUGAGACUCUGUCUCAAAAAAAAAACA	0.425
CCCGUCCCCCAGCUGCCUGUCCUUAUAACCAGCUAUUCUCUGUCCUCUUGGCUCCUGGUCCUCUCUGUGCUCGAUUCUCUAUCCUGUGCCAGUUUCCUCUCCGUCUCACG	0.726
GCAAUGAAAGGUACUAUAUUUGCUAGACUCUAGACAAGAUAUUGUACAUAAAAGAAUUUUUUUGUCUUUAAAUAGAUACAAAUGUCUAUCAACUUUAAUCAAGUUGUAAC	0.438
UCUGUCGGUGAGGCCUUCUCUAAUGCAGUAUUCAUGAUGUUCUCAUUCAUGUUCUCAUUCAUGAUGUUCAUGAUCUUGAGAUCUAUCUGCUGCAGUUUUUUGACUCCUGU	0.198
AGGGCCAGUAACGGGUCGUAAUGACUUAUUGUGGAUAACAAAGAUAUCUUUUCUUUAGAGAACUGAAAAGAGAGCAGAGAAUAUAACAUGAAAUGAUAGAUUUGACCUCC	0.477
GAUCAGCUCGUGUAAAACACACCGUCUUCUUGGCCUCCUGGCCAGUCUUUCUGCGAAUAGUCCUCUCCCUGGCCAGUUGAAUGGGGGAAGCUGCUGGCACAGGAAGGAGA	0.586
CAUGUGGCCAGUCCUGUGGGACUUAGGGUCCCAACCUGUAUAUUCUGUCUCAAAGAACAUUAAACUCUUCUGGAACUGGCCCUUGACAGCCUGGGACCAGGGAAACUUUU	0.389
UUGUGAGAAUUGUCAGUGUAACUAUUACCUACCAGUAUUGUUCAGAGAGAUUGAAACAGAAUAAACGGGCUGUUCUUGAAGAAGCAAAACCAGAAUAUGCAUUACUUUGG	0.474
CUAAUGCAUAGAGACACUAAAACCCACACCACAUUUUGUGGGAAAUGAGGAUCCUGAUCCUCUUUUGUCCUCUCCAGGUAGUCUCGCAGGUUAUGCAGCUUAAGUUCAGU	0.452
GCUAAAUGCCCAGGCCCACUUAACUUAUUAAUGUGUGAAUUACAUUUAUGUUUUUAGUUUAUAUGCAAAGAAUUGUGAUAAUUUUAUAAUAAAUAUUUUUAUUAUAAUAG	1.06

Sample 5
Target: RING finger protein unkempt homolog, zinc fingers 1-6, GST-SBP tag (UNK, Homo sapiens, UniProt Q9C0B0, residues 30-357)
UniProt Q9C0B0, sequence (30-357, looked up): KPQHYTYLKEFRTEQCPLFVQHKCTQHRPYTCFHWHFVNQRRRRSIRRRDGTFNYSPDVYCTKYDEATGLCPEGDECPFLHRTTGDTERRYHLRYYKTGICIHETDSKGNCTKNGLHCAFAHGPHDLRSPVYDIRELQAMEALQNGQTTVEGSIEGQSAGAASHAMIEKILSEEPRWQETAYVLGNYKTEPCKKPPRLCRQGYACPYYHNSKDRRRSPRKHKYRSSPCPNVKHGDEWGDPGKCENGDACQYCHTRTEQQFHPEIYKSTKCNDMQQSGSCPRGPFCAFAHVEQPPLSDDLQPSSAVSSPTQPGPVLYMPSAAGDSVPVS
Technique: RNA Bind-n-Seq
Molecule type: RNA
Sample: in vitro
Concentration: not given
Notes: RNA with constant flanks, ends assumed
Reference: input RNA pool
Reading: higher = stronger binding
Shared flanks, not repeated: GGGAGUUCUACAGUCCGACGAUC … CAACAGAGGAUUGAGCAUCA
Oligonucleotide	bound/input enrichment
AGGAAGAAUCUUUUUGAAAGGCCUUUAUUCAAUACCCAUUUACAGAAGUCCUUUGUAAGCCGCAACUGGGCUGAAACACCAAGACUAGGAAAAAAAAAUGAAAGCUCUUAUUUCCCAGGA	3.37 ratio
GUGGAGCCGGCGGACGCCUCCGGUACCGAGAAAGCUUUCGAGCCAGCAACCGGCCGAGUGACCGCUACUUUCACAUGUUCAGGAGAAAAGGAAGUAAAUUUGGCUGUUCAAAAUGCAAAG	0.13 ratio
AUCAGAAGAGUGAAAUCUCAUAAGGAAUUUUUGAAUAAAACAACACACCAGCUUUUGUUUGUCCGACAUCAGUUUAAAAUAGCUUUCUUCAGUGAGUUGAAACAAGAUACACAAAACGCC	0.636 ratio
GAUGUUCUGCCUACUCAGAUCUAUCCUCUCCCCAAGCAGCAGAACCUUCCCAAGAGACCUACCCGUUUGCCUUUGAACACCAAAAAUUCAACAAAAGAGCCCCGGCUAAAAUUUGGCAGC	0.418 ratio
CCAGGAAAAGUGUCUGGCAGCCCUGAGCAAGCCGUGGAGGAAAACCUUAGUUCCUAUUCCUCCGACAGAAGAGUGACACCCGCCUCUGAGACCCUAGAAGACCCUUGCAGGACAGAGUCC	0.295 ratio
UUUGAUGUCAUGGUGAUGCCUAAUCUCUAUGGUAACAUUGUCAACAACGUCUGUGCAGGGCCCGUUGGAGGCCCAGGCCUUGUGGCUGGGGCCAACUAUGGCCAUGUGUAUGCAGUAUUC	0.166 ratio
CGGUAUCCAGACAUCCGCAUUGAAGGCGAGAAUUAUCUCCCUCAACCAAUUUAUAGACACACCGCAUCUUUCCUGUCAGUCUUCAAACUAGUAUUAAUAGGCUUAAUAAUUGUUGGCAAA	37 ratio
AAGAACUUGGCCCUCAUGACACAUAUAACAACUGACAUGGAAGAUGGACCCAUUAUUAAGUCCGCUGGGAACUUGGGAGUAGAAGAUGUGAAUUUAUUAUGUGGAGAAGAGCUCUCUUAC	0.299 ratio
UUUUUAAAAAAAUAAAAUAAAACAUAAAUAUUACUCUUCCAUAUUCCUUCUGCCUAUAUUCCGUAAUUAAUUUAUUUUAUGAUAAAGUUCUAAUGAAAUGUAAAUUGUUUCAGCAAAAUU	2.21 ratio
CCUGCUACAGUUUUUAUGCUCUUUAGUGGCCAAGGAAGUUUGCUCCAGCCUUUUAUAUAUUACCGAUUUCUUACUCUUCGAUAUUCCUCUAGAAGAAAUCCAUAUUGUCGGAACUUGUUU	3.77 ratio
GGGCUGUACAGGUCACCCUCUCCCACGGUGCCCGCCGACCCUGGGGUGUCUGUCUCUCUGCGGGCCGGAGGGCGCCAUGGGCGCGCCGCCGCCCGCUCCCCGCAGCCGCCUUUGCGGAGC	0.197 ratio

Some of these lines once more (sample 2):
Change	relative binding score [%]
I12Y	-3.15
S63E	17.5
V118Y	2.82
V43D	2.98
D65P	48
V78A	9.52
D65W	-0.0577
S87H	50.2
D75M	22.5
F5W	34.4
F47N	-4.09
S27M	-0.938
